Experimental data gathered from unrelated publications.
Parts stem from different laboratories: compare values within a part only.

Study 1
Target: RNA binding protein fox-1 homolog 2, RRM domain, GST-SBP tag (RBFOX2, Homo sapiens, UniProt O43251-10, residues 100-194)
Technique: RNA Bind-n-Seq
Molecule type: RNA
Matrix: in vitro
Tested at: 365 nM
Notes: natural RNA segment, single round, ends assumed
Relative to: no-protein control
Direction: higher = stronger binding
Measurement: RBNS enrichment (R)
Construct (chain): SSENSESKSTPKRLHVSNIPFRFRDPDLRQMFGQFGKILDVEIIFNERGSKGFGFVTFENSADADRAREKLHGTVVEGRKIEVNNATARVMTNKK
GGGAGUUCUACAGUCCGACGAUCAGGACUCUGCUGGGUUGAAAUUUGCCGGGGAGGACUCUUGUCUCCCCCUCAGGAGUAUUUUUGUUGAGGCUUUCCUGGAGGUGAAGAAGCAAUUCCCAUUGCAGCAGGUUUGGAAUUCUCGGGUGCCAA: 0.777
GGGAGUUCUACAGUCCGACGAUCCUUUGCUAACCUCAGCAGUUACUUUGUUUCUUUUGUUUAGAAAAGUGAUUGCAAUCCGUGUAUUUUGACCAAAGUUCUCUAUUUUUCCUUGACUAAAACAAGAUAAUGAGUGGAAUUCUCGGGUGCCAA: 0.442
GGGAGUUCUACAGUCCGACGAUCAAAGGUCUUUUAUGGGGAAGAAAGUAAAUGUAUGAAAUAAUAAAUGUGUGACAUUUAUAGGGAAUGUUGGCUCUGAACAAACUUUUGAAAACUUGGUUGACAAAAUUUUGUGGAAUUCUCGGGUGCCAA: 8.28
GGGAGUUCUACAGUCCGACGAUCGCCGGGACAGCUUUCCUCUCAGUCAUUGUUCACCCCACUUGAAAAUUCAGACAAGAAAACUUUGCUUAAAAGAUUUCAUGUGUGGGAACCACAGUUCCUGGCUGCCUUUCUGGAAUUCUCGGGUGCCAA: 0.407
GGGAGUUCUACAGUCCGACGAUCAAGUGUGGGCCUUGCCUGGAAAGGAUGUUAUCACUGUCCUGCUCACAGGAACAGCCCUCUUAAUCUGAGCCUGCCUAUGCUGGCAUUCUUUGCCAGUAAUGGGACACUUCUGGAAUUCUCGGGUGCCAA: 0.254
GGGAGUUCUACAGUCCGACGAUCCUCUCAGCUGGGACAGGAGGUGGCUGCUCAGUCCUAGAGUAGCUCUAUGGGUGAAACCGGCUCUAGUUCUGUCCCCAGCCCCACCCUCUGGUCUCCUACUCUCUGGCCCUUGGAAUUCUCGGGUGCCAA: 0.487
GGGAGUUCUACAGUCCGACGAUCAAGGUCUCUGAUCACACAGAAGCAGCCCUGCCCAGCCUGGUCAUUUGCUGUCCGCUUUUCUCUGUGACCACAGCAGCCCUGAACAACCAGUAUGUGUCUUCUUCUCCAGAUGGAAUUCUCGGGUGCCAA: 0.423
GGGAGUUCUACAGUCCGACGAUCAACACUUAGCUGGCCACCGCUUUAAUCUGGCCCCUUUGGGAAAGCGAAAAUCCCGAUCACAUUGGACAUCGGCAAAGGCGUGCCAUAAAGAGCGGCCCACAGUCAUGCUAUGGAAUUCUCGGGUGCCAA: 0.372
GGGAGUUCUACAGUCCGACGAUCUUGUAGUCUCACAGUAUAACAGAUAUUCUAAUUCUUCUUAAUAUUCCCCCAUAAUGCCAGAAAUUGGCUUAAUGAUGCUUUCACUAAAUUCAUCAAAUAGAUUGCUCCUAUGGAAUUCUCGGGUGCCAA: 0.921
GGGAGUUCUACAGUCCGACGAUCGCUAUCCAAACUGGGGAAGAAGGGGAAAUGGUUGUUACCAACAAUCUCUAGUAGUUAUUUUAAUCUUUAUUUUAACCUGGAUUGCAAAUGUAUGGGGUAUGAGGAGAUAAUGGAAUUCUCGGGUGCCAA: 4.93
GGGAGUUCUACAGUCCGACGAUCUGGAAAGCAUGGUCUACAAUUGGUUGUUAAAUUCUGAAGCUAUGAAGAAUAAAUGUUUCAACUUUGGAUUAUGAAACCCCAUUUAUGAUUUUUUAAAUACACUUGAAAUAUGGAAUUCUCGGGUGCCAA: 18.2
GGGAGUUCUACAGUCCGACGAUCACUGUCCCAGACGAGGGGCUUCCUCUAGAGUCUCACUGCUGGGGAGGAGAGGACUGGGCCUGAUGGAAGUUAACCCGGAGCUAAGUCACCCAGAGCACAGGAGCUGCCAUUGGAAUUCUCGGGUGCCAA: 0.391

Study 2
Target: Prothrombin, mature alpha-thrombin (F2, Homo sapiens, UniProt P00734)
Technique: aptamer microarray, sandwich
Molecule type: DNA with 2'F-ANA
Matrix: in vitro
Tested at: 200 nM
Notes: whole 15-mer aptamer, many near background
Added: Cy3 exosite-II aptamer, 400 nM
Direction: higher = stronger binding
Measurement: mean fluorescence intensity
Sequence: GGTTGGTGTGGTTGG
2'F-ANA at 3 4 6 12: 979 a.u.
2'F-ANA at 2 6 7 9 11 14 15: 106 a.u.
2'F-ANA at 3 6 9 11 12: 1010 a.u.
2'F-ANA at 1 3 4 6 7 8 10 14 15: 50.9 a.u.
2'F-ANA at 3 4 6 7 8 9 11 13 14 15: 230 a.u.
2'F-ANA at 1 2 4 5 9 12 13: 68.9 a.u.
2'F-ANA at 1 5 6 7 8 9 12 13 14: 56.5 a.u.
2'F-ANA at 1 2 3 10: 70.1 a.u.
2'F-ANA at 2 4 5 6 7 8 9 10 11: 50.2 a.u.
2'F-ANA at 3 4 5 6 7 8 9 10 15: 53.7 a.u.
2'F-ANA at 1 2 3 5 7 8 9 10 11 12 13 15: 54.1 a.u.
2'F-ANA at 2 7 8 11 14 15: 202 a.u.
2'F-ANA at 2 6 10 11 15: 104 a.u.
2'F-ANA at 1 2 3 4 5 6 8 9 10 11 13 15: 50.7 a.u.
2'F-ANA at 1 3 4 6 7 9 12 14: 70.6 a.u.
2'F-ANA at 1 5 6 7 9 10 11 13 14 15: 47 a.u.
2'F-ANA at 2 3 5 11 12 15: 178 a.u.

Study 3
Target: Ras GTPase-activating protein-binding protein 1, C-terminal RGG region (G3BP1, Homo sapiens, UniProt Q13283)
UniProt Q13283, sequence (whole entry, looked up): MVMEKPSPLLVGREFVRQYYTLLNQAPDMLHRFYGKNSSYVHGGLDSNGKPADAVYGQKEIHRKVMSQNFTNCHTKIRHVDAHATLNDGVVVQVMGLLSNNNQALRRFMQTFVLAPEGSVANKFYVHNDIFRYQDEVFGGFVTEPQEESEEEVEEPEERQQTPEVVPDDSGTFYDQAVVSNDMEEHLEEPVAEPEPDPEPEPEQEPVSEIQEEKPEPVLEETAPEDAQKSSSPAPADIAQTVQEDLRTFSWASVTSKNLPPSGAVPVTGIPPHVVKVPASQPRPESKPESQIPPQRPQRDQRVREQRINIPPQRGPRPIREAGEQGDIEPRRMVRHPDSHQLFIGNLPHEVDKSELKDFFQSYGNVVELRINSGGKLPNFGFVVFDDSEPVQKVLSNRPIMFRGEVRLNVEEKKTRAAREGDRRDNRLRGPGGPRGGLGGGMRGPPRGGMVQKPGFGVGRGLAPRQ
Technique: RNA Bind-n-Seq
Molecule type: RNA
Matrix: in vitro
Tested at: 1 µM
Notes: whole 134-nt RNA, ends assumed
Added: 150 mM KCl
Relative to: input library
Direction: higher = stronger binding
Measurement: log2 enrichment
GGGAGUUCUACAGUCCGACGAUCUGCUGGAGAUGCAAUAUAUGAGGUGGUGAGUCUACAGCGAGAGUCUGACAAGGAGGAACCAGUCACUCCUACUAGUGGAGGGGGUCCAAUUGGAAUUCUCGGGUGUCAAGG: -1.73
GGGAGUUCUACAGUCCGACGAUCUGGGAGGUGGAUUUUGUUUAUUUUUUUAGCUCAUUUCCAGGGGUGGGAAUUUUUUUUUAAUAUGUGUCAUGAGUAAAGUUGUUUUUGAAAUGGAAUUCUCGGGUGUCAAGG: 2.61
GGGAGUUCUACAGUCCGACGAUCCCUGUGCUACACAUCGUAUGUACCGAAUCGGGGUUUUUUGGGGUUUUUUGGGUUUUUUGGGAAAGUAUUAUGUUACGCCGUUCGGAUCUGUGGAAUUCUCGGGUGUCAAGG: -0.869
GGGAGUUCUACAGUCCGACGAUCUCAAGUCCUGUGCUACACAUCGUAUGUACCGAAUCGGGUUUGGGUUUGGGUUUGGAAAGUAUUAUGUUACGCCGUUCGGAUCUGCACUUCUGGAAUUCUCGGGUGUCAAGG: -1.01
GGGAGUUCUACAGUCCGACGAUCUGGCCCUGGUGGCAUGCGGGGAGGAAGAGGUGGCCUCAUGGAUCGUGGUGGUCCCGGUGGAAUGUUCAGAGGUGUCCGUGGUGGAGACAGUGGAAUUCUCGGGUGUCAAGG: 3.15
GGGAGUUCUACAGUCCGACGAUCGUCCUGUGCUACACAUCGUAUGUACCGAAUCGGGGAAAGGGGAAAGGGGUUUUUGGGGAAAGUAUUAUGUUACGCCGUUCGGAUCUGCACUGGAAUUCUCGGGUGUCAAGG: 3.11
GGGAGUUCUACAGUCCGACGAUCUCAAGUCCUGUGCUACACAUCGUAUGUACCGAAUCGGAAAAAAAGGAGGUUUGGAAAGUAUUAUGUUACGCCGUUCGGAUCUGCACUUCCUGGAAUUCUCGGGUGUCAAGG: -1.51
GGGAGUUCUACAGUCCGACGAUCAGUCCUGUGCUACACAUCGUAUGUACCGAAUCGGUUUGGAAAAAAAGGAAAAAAAGGAAAGUAUUAUGUUACGCCGUUCGGAUCUGCACUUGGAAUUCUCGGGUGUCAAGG: -1.81
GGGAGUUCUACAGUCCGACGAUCCAAGUCCUGUGCUACACAUCGUAUGUACCGAAUCGGGGCCGGGCCGGGGCCGGGGAAAGUAUUAUGUUACGCCGUUCGGAUCUGCACUUCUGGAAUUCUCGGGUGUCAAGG: -0.781
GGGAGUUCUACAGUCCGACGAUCUUCCUCAAGUCCUGUGCUACACAUCGUAUGUACCGAAUCGGUGGAGGAGGAAAGUAUUAUGUUACGCCGUUCGGAUCUGCACUUCCAGCAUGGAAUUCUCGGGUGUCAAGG: -1.5

Study 4
Target: RING finger protein unkempt homolog, zinc fingers 1-6, GST-SBP tag (UNK, Homo sapiens, UniProt Q9C0B0, residues 30-357)
UniProt Q9C0B0, sequence (30-357, looked up): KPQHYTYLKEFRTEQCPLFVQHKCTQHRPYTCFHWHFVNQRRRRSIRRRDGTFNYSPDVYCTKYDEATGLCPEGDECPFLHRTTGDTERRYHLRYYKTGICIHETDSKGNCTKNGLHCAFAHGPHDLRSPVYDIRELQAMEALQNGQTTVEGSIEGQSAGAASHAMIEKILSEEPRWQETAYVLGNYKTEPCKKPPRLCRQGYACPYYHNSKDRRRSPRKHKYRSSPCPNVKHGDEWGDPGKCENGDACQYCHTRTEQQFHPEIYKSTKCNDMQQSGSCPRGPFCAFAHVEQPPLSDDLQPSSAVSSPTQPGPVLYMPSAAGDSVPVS
Technique: RNA Bind-n-Seq
Molecule type: RNA
Matrix: in vitro
Tested at: not given
Notes: RNA with constant flanks, ends assumed
Relative to: input RNA pool
Direction: higher = stronger binding
Measurement: bound/input enrichment
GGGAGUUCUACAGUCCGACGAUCUUUUUUCAGUUUAUAUUAAUCUACUGUAUCAAUAAAAUUCUGUAAUUUGAAUGGGCUUUUAACCGUCCCGAAUGUUAUUGUGUAUAGAUAUUACUUCUUGAACAUUAUGUUCAGAAAUGCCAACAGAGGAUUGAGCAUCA: 1.97 ratio
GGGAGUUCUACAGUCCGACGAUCCUUAGUCCUGAUGCUGUCUAUGUACUGUGCUACUCUUUGAUUCUACUUUCCAUUGACCUCACCCGCCCUCAUGUGAAGAAUAAAAUGUCAAAAAGGGAAUUUAUUCGAAAUACCCGUCGCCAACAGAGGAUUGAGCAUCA: 0.355 ratio
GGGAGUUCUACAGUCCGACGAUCGAGAAGAAAUAUUGCAGUGAAUGAAGAUUCCUCUGCAUUUUAGCACUGCUUUUUCAACUGCCGUUGGCUUUUGAAUGAGGAUGACAAUGGAAGAGAUGAAGAAUGAAGCUGAGACCACAUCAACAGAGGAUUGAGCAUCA: 0.423 ratio
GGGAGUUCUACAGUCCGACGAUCAUGAGCAUAAAUGAAGCUAAGGAAUAUGAAGUGUACGACAGUUCGCCUCAUCUUGAGUGCCCCGCAGAAUUUCAGGAGAAAGUCAGGAAGACCAACAAUUUUUCAGCUUUUCUUGCCAAUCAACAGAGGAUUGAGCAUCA: 0.111 ratio
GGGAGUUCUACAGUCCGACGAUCGACCGUGCCCUAGAAUUUGCCCCUGCCUGCCAUCGAUUCAAAAUUCUCAAAGCAGAAUGUUCCGCAAUGCUUGGUCGAUACCCAGAAGCACAGUUUGUGGCCAGUGACAUUUUACGAAUGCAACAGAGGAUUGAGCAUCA: 0.34 ratio
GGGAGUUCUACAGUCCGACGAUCGCAGUUACCAGUUUCAGCAGGCUUUGCUUUUAUACUGUUGUGAAAUUUCAUCUCUCUGUGCCGCACCUUCCUUUUUUCCAUUGUAGAUAUAAAAAGUGACUUUUGCCUCAUGAAAGAGUUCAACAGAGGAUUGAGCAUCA: 1.52 ratio
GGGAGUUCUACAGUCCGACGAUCGACAUUUGGACAUUACUGGGGACGGUGCUUUAUCCAUUCCUGGCCAUAUGGAGAUUAAUCCGCAAUUUUUUAUUUAGCAAUCCUCCUCCUGCACAGACUUCAGCAAGAGCCACAUCCACACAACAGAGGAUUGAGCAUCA: 1.74 ratio
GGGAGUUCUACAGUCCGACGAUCAAUUAUCAAGUUUUAUUCACCUCAAAUCCCACUGGGUUCUUAAAACUUGAAAAUUCAAAUUGCCGAGAAUUAUGAGACACAAUGUGAUGUUUAGUUAAAGUCAUGCUAUACCUUUCUGGGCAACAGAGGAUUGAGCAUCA: 0.435 ratio
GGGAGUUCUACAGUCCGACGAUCGAACCUGAGCCAGCGGAAGAAUACACAGAGCAAAGUGAGGUUGAAUCAACAGAGUAUGUCAACCGGCAGUUCAUGGCAGAAACACAGUUCAGCAGUGGUGAGAAGGAGCAAGUGGAUGAGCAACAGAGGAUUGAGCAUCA: 0.236 ratio
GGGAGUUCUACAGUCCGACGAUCUUAGGAAAAGCUACAAAUAACACUUACUUUGAAUCCUGCUGUCAAAUGUCUGCAUCAAGACCGCACCCCUUUGUGGGAGGCCCUGAGUAUCUUCUCUUCCUCUACUGCCUAACUGUUGGUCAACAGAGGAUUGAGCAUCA: 0.381 ratio
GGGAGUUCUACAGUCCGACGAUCUCCAGCGCAGAGCCCCGUCCUGAUUGAUCGCAUCGCGGGGCUCAGAUGACUGUAAAAUGAACCGAUGAAAUUCUUGCUUCUCGAAGAUUUUCUUGGGCAUCUCCCGGAAAGUGCGUUUUACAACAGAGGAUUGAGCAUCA: 0.174 ratio

For quick reference, copied from above (study 2):
2'F-ANA at 1 5 6 7 8 9 12 13 14: 56.5 a.u.
2'F-ANA at 1 2 3 10: 70.1 a.u.
2'F-ANA at 2 4 5 6 7 8 9 10 11: 50.2 a.u.
2'F-ANA at 3 4 5 6 7 8 9 10 15: 53.7 a.u.
2'F-ANA at 1 2 3 5 7 8 9 10 11 12 13 15: 54.1 a.u.
